Assay results collected from several papers.
Each line is one published result; not all experiments were run side by side. Several values in a cell are separate wells, animals, samples, runs or records. Numbers after ± are the reported error. In brackets after ≈: the same amount, converted by molar mass.

For Nc1ncnc2c1ncn2[C@@H]1O[C@@H]2COP(=O)(O)O[C@H]3[C@@H](O)[C@H](n4cnc5c(=O)[nH]cnc54)O[C@@H]3COP(=O)(O)O[C@H]2[C@H]1O, the fold enrichment was 4.82 (West Nile virus; RNA sequencing Reactome analysis, measured: Cell-Cell communication (R-HSA-1500931); HFF-1; concentration not given, downregulated pathways, with: West Nile virus infection; baseline: WNV-infected without compound).
The MIC range of CN[C@H](CC(C)C)C(=O)N[C@H]1C(=O)N[C@@H](CC(N)=O)C(=O)N[C@H]2C(=O)N[C@H]3C(=O)N[C@H](C(=O)N[C@H](C(=O)O)c4cc(O)cc(O)c4-c4cc3ccc4O)[C@H](O)c3ccc(c(Cl)c3)Oc3cc2cc(c3O[C@@H]2O[C@H](CO)[C@@H](O)[C@H](O)[C@H]2O[C@H]2C[C@](C)(N)[C@H](O)[C@H](C)O2)Oc2ccc(cc2Cl)[C@H]1O is reported as > 32 µg/mL (Enterococcus faecalis; broth microdilution; VanB vancomycin-resistant clinical isolates).
For CC1(C)SC2C(NC(=O)C(NC(=O)C3=C(O)C(c4ccccc4)NC3=O)c3ccccc3)C(=O)N2C1C(=O)O (stereo not drawn), the MIC was > 200 µg/mL (Escherichia coli; broth microdilution; isolate IU, CTX-M-14, TEM-1; no clavulanic acid).
For Nc1c(C(=O)Nc2ccc(C3=NCCN3)cc2)cccc1C(=O)Nc1ccc(C2=NCCN2)cc1, the IC50 was 11400 nM (Tetrahymena pyriformis and Klebsiella pneumoniae; virulence in co-culture).
The MIC90 of Cc1ncc([N+](=O)[O-])n1CCO is reported as 1 µg/mL (≈ 5.84 µM) (Parabacteroides distasonis and Bacteroides spp.; bacterial growth).
The survival of CN(C)[C@@H]1C(O)=C(C(N)=O)C(=O)[C@@]2(O)C(O)=C3C(=O)c4c(O)cccc4[C@@](C)(O)[C@H]3C[C@@H]12 is reported as 87.2% and 95.2% and 91.8% and 80% and 82.3% and 102% (Acinetobacter baumannii; 19606, biofilm; 3.125 µg/mL, without HNP1).
With CCCCCCCCn1nnc2c1C(Cc1ccccc1)(C(=O)OCC)CN(c1ccccc1)C2 (stereo not drawn) the EC50 was > 100000 nM (human adenovirus 2; viral replication; HEL).
With CC(C)(C)Oc1ccc(CC2NC(=O)C(C(=O)NC(C(=O)NC3C(=O)N4C3SC(C)(C)C4C(=O)O)c3ccccc3)=C2O)cc1 (stereo not drawn) the MIC was > 200 µg/mL (Escherichia coli; broth microdilution; isolate IU, CTX-M-14, TEM-1; with: clavulanic acid 6 µg/mL).
CC[C@H](C)[C@H](NC(=O)[C@H](C)NC(=O)[C@H](CCCCN)NC(=O)[C@H](CC(C)C)NC(=O)[C@H](C)NC(=O)[C@@H](NC(=O)[C@H](Cc1c[nH]cn1)NC(=O)[C@H](CC(C)C)NC(=O)[C@@H](NC(=O)[C@@H](NC(=O)[C@H](CCCCN)NC(=O)[C@H](C)NC(=O)[C@H](C)NC(=O)[C@H](CO)NC(=O)[C@H](CCCCN)NC(=O)[C@H](Cc1ccccc1)NC(=O)[C@@H](NC(=O)[C@H](CCCCN)NC(=O)[C@H](CC(C)C)NC(=O)[C@H](Cc1ccccc1)NC(=O)[C@H](CO)NC(=O)[C@H](CCCCN)NC(=O)[C@H](Cc1c[nH]c2ccccc12)NC(=O)[C@H](CCCCN)NC(C)=O)[C@@H](C)O)[C@@H](C)O)C(C)C)[C@@H](C)O)C(=O)N[C@@H](CO)C(=O)N[C@@H](CO)C(N)=O gave an MIC50 of 16 µg/mL (≈ 5.45 µM) (Enterococcus faecalis; 40 strains).
With Cc1c2c(nn1C)CSCc1cc(n(C)n1)CSc1cc(c3ccccc3c1)OCCCc1c(C(=O)O)n(C)c3c-2c(Cl)ccc13 the downregulation was 4.7 fold (Staphylococcus aureus; label-free quantitative proteomics, measured: TdcB protein; SA113; 3.125 µM; baseline: DMSO).
Cc1ccc2cccc(C(=O)O)c2c1 gave an IC50 of 1460 nM (Tetrahymena pyriformis and Klebsiella pneumoniae; virulence in co-culture).
COc1ccc(C[C@H](NC(=O)[C@H](C)NC(=O)CN2CCOCC2)C(=O)N[C@@H](Cc2ccccc2)C(=O)C2(C)CO2)cc1 (stereo in doubt) gave a selectivity ratio of > 6000 (Plasmodium falciparum; various incl. drug-resistant strains; baseline: HEK-293T CC50 over IC50).
CCCN(CCC)CC(O)COc1ccccc1C(=O)Nc1ccccc1 (stereo not drawn) gave an inhibition of 20% (Plasmodium yoelii; oxygen consumption; 17XL; 2 µM).
CN[C@H](CC(C)C)C(=O)N[C@H]1C(=O)N[C@@H](CC(N)=O)C(=O)N[C@H]2C(=O)N[C@H]3C(=O)N[C@H](C(=O)N[C@H](C(=O)O)c4cc(O)cc(O)c4-c4cc3ccc4O)[C@H](O)c3ccc(c(Cl)c3)Oc3cc2cc(c3O[C@@H]2O[C@H](CO)[C@@H](O)[C@H](O)[C@H]2O[C@H]2C[C@](C)(N)[C@H](O)[C@H](C)O2)Oc2ccc(cc2Cl)[C@H]1O gave an MBC of 11.7 µM (Enterococcus faecalis; OG1RF).
With COc1ccc2c(ccc3oc([N+](=O)[O-])cc32)c1 the MIC90 was 0.25 µg/mL (≈ 1.03 µM) (Mycolicibacterium aurum; REMA; ATCC 23366).
For Cn1c(=O)ccc2ccc(F)c(CCNC[C@H]3CN(c4cnc5c(n4)NC(=O)CO5)C(=O)O3)c21, the MIC90 was 0.25 µg/mL (≈ 0.534 µM) (Bacteroides fragilis).
For CC1=C(C)/C(=C/c2cc(Cc3ccc(OC(F)(F)F)cc3)c(C)[nH]2)N=C1c1ccc[nH]1.Cl, the parasitaemia reduction was 100% (Plasmodium yoelii; CF1 mice; oral, 10 mg/kg daily for 4 days, day 5; baseline: vehicle).
COC(=O)c1ccc2c(ccc3oc([N+](=O)[O-])cc32)c1 gave an MIC90 of 1 µg/mL (≈ 3.69 µM) (Mycolicibacterium aurum; REMA; ATCC 23366).
CNCCN(C)C(=O)Oc1c(Cl)c(C)nc(C)c1-c1ccc(Oc2ccc(OC(F)(F)F)cc2)cc1 gave an IC50 of 269 ± 34 nM (Plasmodium yoelii; 17XL; 384-well).
Cc1[nH]c(/C=C2\N=C(c3ccc[nH]3)C=C2OC(C)C)cc1Cc1ccc(OC(F)(F)F)cc1.Cl gave a parasitaemia reduction of 100% (Plasmodium yoelii; CF1 mice; oral, 10 mg/kg daily for 4 days, day 5; baseline: vehicle).
The IC50 of CSc1nc(C)c(Cl)c(O)n1 is reported as 1560 nM (Tetrahymena pyriformis and Klebsiella pneumoniae; virulence in co-culture).
For CS(=O)(=O)CCCn1c(Cn2c(=O)n(CC(F)(F)F)c3ccncc32)cc2cc(Cl)ccc21, “LS mean viral load change” read -3.02 log10 copies/mL (respiratory syncytial virus; RT-qPCR; hospitalized infants 1-24 months, nasal swab; oral, 6, 4.5 or 3 mg/kg daily, day 5, mid dose by age cohort; baseline: baseline).
The MBC of CC[C@H](C)[C@H](NC(=O)[C@H](CC(N)=O)NC(=O)[C@H](Cc1ccccc1)NC(=O)[C@H](CCCNC(=N)N)NC(=O)[C@H](CCCNC(=N)N)NC(=O)[C@@H](N)CCCCN)C(=O)N[C@@H](CCCCN)C(=O)N[C@@H](CC(C)C)C(=O)N[C@@H](Cc1c[nH]c2ccccc12)C(=O)N[C@@H](CCCCN)C(=O)N[C@H](C(=O)N[C@@H](Cc1ccccc1)C(=O)O)[C@@H](C)O is reported as 32 µg/mL (Staphylococcus haemolyticus).
Cc1cc(C)cc(NC(=O)Nc2ccc(N3CCCCC3)cc2)c1 has an IC50 of 1520 nM (Tetrahymena pyriformis and Klebsiella pneumoniae; virulence in co-culture).
The parasitaemia reduction of COC1=CC(c2ccc[nH]2)=N/C1=C\c1cc(-c2ccc(OC(F)(F)F)cc2)c(C)[nH]1.Cl is reported as 100% (Plasmodium yoelii; CF1 mice; oral, 10 mg/kg daily for 4 days, day 5; baseline: vehicle).
O=[N+]([O-])c1cc2c(ccc3c4cc([N+](=O)[O-])oc4ccc23)o1 has an MIC90 of 16 µg/mL (≈ 53.7 µM) (Mycolicibacterium aurum; REMA; ATCC 23366).
With O=C(Nc1ccsc1C(=O)NC1CCCCC1)c1ccc(F)cc1 the inhibition was 1% (Plasmodium yoelii; oxygen consumption; 17XL; 2 µM).
With Fc1cccc(Cn2nnc3c2CCN(c2ccc(C(F)(F)F)cc2)C3)c1 the EC50 was > 100000 nM (human adenovirus 2; viral replication; HEL).
For O=C(O)c1cccc2ccccc12, the IC50 was 2500 nM (Tetrahymena pyriformis and Klebsiella pneumoniae; virulence in co-culture).
With COC1=CC(c2ccc[nH]2)=N/C1=C\c1cc(Cc2ccc(Cl)cc2)c(C)[nH]1.Cl the ED90 was 4.03 mg/kg/day (Plasmodium yoelii; parasitaemia; mouse; 4-day treatment, parasitaemia day 5).
With COC(=O)N[C@H](C(=O)N1CCC[C@H]1c1ncc(-c2ccc(-c3ccc(-c4cnc([C@@H]5CCCN5C(=O)[C@@H](NC(=O)OC)C(C)C)[nH]4)cc3)cc2)[nH]1)C(C)C the combination index was 0.6 and 1.04 and 0.81 (hepatitis C virus; HCV replicon; 90% effect level, with: IFN-α, ratio 1:2.5).
The MFC of CC(=O)N1CCN(c2ccc(OCC3COC(Cn4ccnc4)(c4ccc(Cl)cc4Cl)O3)cc2)CC1 (stereo not drawn) is reported as > 64 µM (Candida albicans; 56467; 48 h, 30 °C).
For C=CC1(C)CC(OC(=O)CSCCCCCN(C)C)C2(C)C(C)CCC3(CCC(=O)C32)C(C)C1O (stereo not drawn), the IC50 was 6510 nM (Tetrahymena pyriformis and Klebsiella pneumoniae; virulence in co-culture).
With O=[N+]([O-])c1ccc(C2=[N+]([O-])c3ccccc3N3CCN=C23)cc1 the MIC90 was ≤ 0.06 µg/mL (Parabacteroides distasonis and Bacteroides spp.; bacterial growth).
COc1cccc(C(=O)NN(C(=O)c2cc(C)cc(C)c2)C(C)(C)C)c1C: lifespan “no effect” (Anopheles gambiae; G3, lab susceptible; tarsal contact, dose not given, no blood meal, without RME; baseline: control).
For COc1cc2ccc3oc([N+](=O)[O-])cc3c2cc1OC, the MIC90 was > 32 µg/mL (Klebsiella aerogenes; REMA).

A few entries again:
The MIC90 of Cc1ncc([N+](=O)[O-])n1CCO is reported as 1 µg/mL (≈ 5.84 µM) (Parabacteroides distasonis and Bacteroides spp.; bacterial growth).
With COc1ccc2c(ccc3oc([N+](=O)[O-])cc32)c1 the MIC90 was 0.25 µg/mL (≈ 1.03 µM) (Mycolicibacterium aurum; REMA; ATCC 23366).
